Assay results of several laboratories.
Lines come from different studies, so protocols differ. Several values in a cell are separate wells, animals, samples, runs or records. ± marks the error that the study gave.

Structure (SMILES)	cell line	read-out	method	sample	time	IC50
CC[C@H](C)[C@@H]([C@@H](CC(=O)N1CCC[C@H]1[C@H](OC)[C@@H](C)C(=O)N[C@H](C)[C@@H](O)c1ccccc1)OC)N(C)C(=O)[C@@H](NC(=O)[C@H](C(C)C)N(C)C(=O)OCc1ccc(NC(=O)[C@H](CCCNC(N)=O)NC(=O)[C@@H](NC(=O)CCCc2cn(CC(=O)N[C@@H](CCCCNC(=O)CC[C@H](NC(=O)c3ccc(NCc4cnc5nc(N)[nH]c(=O)c5n4)cc3)C(=O)O)C(=O)NCCCC[C@H]3NC(=O)[C@H](CCCCN)NC(=O)[C@H](CCCNC(N)=O)NC(=O)[C@H](Cc4ccc(O)cc4)NC(=O)[C@@H](NC(=O)[C@H](Cc4ccc5ccccc5c4)NC(=O)[C@H](CCCNC(=N)N)NC(=O)[C@@H](N)CCCNC(=N)N)CSSC[C@@H](C(=O)N[C@@H](CCCNC(=N)N)C(N)=O)NC(=O)[C@H](CCCNC(N)=O)NC(=O)[C@H](CCCNC(=N)N)NC(=O)[C@H](Cc4ccc(O)cc4)NC(=O)[C@@H]4CCCN4C3=O)nn2)C(C)C)cc1)C(C)C	4T1	cell growth or viability	CCK-8	–	–	0.489 µM
Cc1cc(C)cc(COc2cc3c(cc2OCc2cc(C)cc(C)c2)C2CC(O)(Cc4cn(CCOCCOCCOCCOCC(=O)Nc5cccc6c5C(=O)N(C5CCC(=O)NC5=O)C6=O)nn4)CC(C)N2CC3)c1 (racemic)	ASPC1	cell growth or viability	MTT	–	–	1.05 µM
COc1ccccc1-c1ccncc1C(=O)Nc1nnc(OCc2ccc(Cl)cc2)s1	Brca1 cc/cc MEFs	colony survival	–	–	–	~3 µM
O=C(Nc1cccs1)c1cccnc1	HCT-116 Cas9-expressing	cell viability	–	Nam-free DMEM 10% FBS	–	0.0208 µM
CC[C@H](C)[C@@H]1NC(=O)[C@@H]2CCCN2C(=O)[C@H](C)NC(=O)[C@H](CC(C)C)NC(=O)[C@@H]2CCCN2C(=O)[C@H](C)NC(=O)[C@@H]2CSSC[C@H](NC(=O)[C@H](C)NC(=O)[C@H](C)NC(=O)[C@H](Cc3ccc(O)cc3)NC(=O)[C@@H]3CCCN3C(=O)CNC(=O)[C@H](Cc3c[nH]c4ccccc34)NC1=O)C(=O)N[C@@H](CC(C)C)C(=O)N[C@@H](CO)C(=O)N[C@@H](C)C(=O)N[C@H]1CSSC[C@H](NC(=O)[C@H](C(C)C)NC(=O)[C@@H]3CCCN3C(=O)CNC(=O)CNC(=O)CNC(=O)[C@H](C)NC(=O)[C@H](C)NC(=O)[C@H](CC(C)C)NC1=O)C(=O)N[C@@H](CC(C)C)C(=O)N[C@@H](C)C(=O)N[C@@H](C(C)C)C(=O)N2	CT26	–	–	–	–	> 128 mg/L
CC(=O)N[C@H](C(=O)N[C@@H](CCCNC(=N)N)C(=O)N[C@@H](CCCCN)C(=O)N[C@@H](CCCNC(=N)N)C(=O)N[C@H](C(=O)N[C@@]1(C)CCCC=CCCC[C@@](C)(C(=O)N[C@@H](CCC(N)=O)C(=O)N[C@@H](CCC(=O)O)C(=O)N[C@@H](CCCNC(=N)N)C(=O)N[C@@H](CCC(=O)O)C(=O)N[C@@H](CC(C)C)C(=O)N[C@H](C(=O)N[C@@H](CCC(=O)O)C(N)=O)C(C)C)NC(=O)[C@H](CC(C)C)NC(=O)[C@H](CCCNC(=N)N)NC(=O)[C@H](CCCNC(=N)N)NC1=O)[C@@H](C)O)C(C)C	SK-N-MC (no EGFR or ErbB2-4)	cell viability	ATP luminescence	–	18 h	> 10 µM
[CH3][Ti+2][O]C(=O)c1ccc([S][Au][PH](c2ccccc2)(c2ccccc2)[c-]2cccc2)cc1.[Fe+2].c1cc[cH-]c1.c1cc[cH-]c1.c1cc[cH-]c1	renal proximal tubule cells	cytotoxicity	XTT	–	24 h	4.19 ± 0.11 µM
Cc1ccc(C(C)C)cc1.Cc1ccc(C(C)C)cc1.Cc1ccc(C(C)C)cc1.Cc1ccc(C(C)C)cc1.O=S(=O)(O)C(F)(F)F.O=S(=O)(O)C(F)(F)F.O=S(=O)(O)C(F)(F)F.O=S(=O)(O)C(F)(F)F.c1ccc2c3c4ccccc4c(c2c1)-c1cn(nn1)-c1cc[n+](cc1)[Ru-]1[O]c2ccc4c5c(ccc(c25)=[O+]1)=[O+][Ru-]([O]4)[n+]1ccc(cc1)-n1cc(nn1)-c1c2ccccc2c(c2ccccc12)-c1cn(nn1)-c1cc[n+](cc1)[Ru-]1[O]c2ccc4c5c(ccc(c25)=[O+]1)=[O+][Ru-]([O]4)[n+]1ccc(cc1)-n1cc-3nn1	HCT-15	cell growth or viability	MTT	–	24 h	1.8 µM
CC(=O)N[C@H](C(=O)N[C@@H](CCCNC(=N)N)C(=O)N[C@@H](CCCCN)C(=O)N[C@@H](CCCNC(=N)N)C(=O)N[C@H](C(=O)N[C@@H](CC(C)C)C(=O)N[C@@H](CCCNC(=N)N)C(=O)N[C@@H](CCCNC(=N)N)C(=O)N[C@]1(C)CCCC=CCCC[C@@](C)(C(=O)N[C@@H](CCCNC(=N)N)C(=O)N[C@@H](CCC(=O)O)C(=O)N[C@@H](CC(C)C)C(=O)N[C@H](C(=O)N[C@@H](CCC(=O)O)C(N)=O)C(C)C)NC(=O)[C@H](CCC(N)=O)NC(=O)[C@H](CC(C)C)NC1=O)[C@@H](C)O)C(C)C	SK-N-MC (no EGFR or ErbB2-4)	cell viability	ATP luminescence	–	18 h	> 100 µM
CC[C@H](C)[C@H](NC(=O)[C@H](CCCCN)NC(=O)[C@H](CCCCN)NC(=O)[C@H](CC(C)C)NC(=O)[C@H](CCCCN)NC(=O)[C@H](CCCCN)NC(=O)[C@H](Cc1ccccc1)NC(=O)[C@H](Cc1ccccc1)NC(=O)[C@H](CCCNC(=N)N)NC(=O)[C@H](CCCNC(=N)N)NC(=O)[C@@H](NC(=O)[C@H](CCCCN)NC(=O)[C@H](CCCNC(=N)N)NC(=O)[C@@H](NC(=O)[C@H](Cc1ccc(O)cc1)NC(=O)[C@H](CO)NC(=O)[C@H](CCCNC(=N)N)NC(=O)[C@@H](N)CC(C)C)[C@@H](C)CC)[C@@H](C)CC)C(=O)N[C@@H](CC(C)C)C(=O)N[C@@H](CCCCN)C(=O)N[C@@H](CCCCN)C(N)=O	THP-1	cell growth or viability	resazurin	–	–	10 µM
Cc1cc(Oc2nc(N3CC[C@@H](c4ccncc4)C3)ncc2F)[nH]n1	HCT-15	cell proliferation	–	colon cancer	–	41.7 µM
CC(=O)[O][Pt]([NH2])([NH2])([Cl])([Cl])[O]C(=O)C(Cl)Cl	HCT-15	cell growth or viability	MTT	–	72 h	4.05 µM
N=C(N)NCCC[C@H](N)C(=O)N[C@@H](CC(=O)N[C@@H](Cc1ccccc1)C(=O)O)c1cccc2ccccc12	MCF-10A	cell growth or viability	–	–	–	> 35 µM
CC(=O)N[C@H](C(=O)N[C@@H](CCCNC(=N)N)C(=O)N[C@@H](CCCCN)C(=O)N[C@@H](CCCNC(=N)N)C(=O)N[C@]1(C)CCCCCCC=CCCC[C@@](C)(C(=O)N[C@@H](CCCNC(=N)N)C(=O)N[C@@H](CCC(=O)O)C(=O)N[C@@H](CC(C)C)C(=O)N[C@H](C(=O)N[C@@H](CCC(=O)O)C(N)=O)C(C)C)NC(=O)[C@H](CCC(N)=O)NC(=O)[C@H](CC(C)C)NC(=O)[C@H](CC(C)C)NC(=O)[C@H](CCCNC(=N)N)NC(=O)[C@H](CCCNC(=N)N)NC(=O)[C@H](CC(C)C)NC1=O)C(C)C	H2030 (wild-type EGFR)	cell viability	ATP luminescence	–	18 h	1.58 ± 0.43 µM
CCC1(c2ccc(NC(=O)CCC(=O)OC3OC4OC5(C)CCC6C(C)CCC(C3C)C46OO5)cc2)CCC(=O)NC1=O (mixture of isomers)	MCF-10A	cell growth or viability	CCK-8	–	–	19.8 µM
CC(C)C12OC1C1OC13C1(C)CCC4=C(COC4=O)C1CC1OC13C2OC(=O)CCC(=O)OC1OC(CO)C(O)C(O)C1O (stereo not shown)	human cancer cell lines	cell viability	XTT	–	–	2.42 µM
Cc1cc(Nc2nc(C[C@@]3(C(=O)O)CCN(Cc4cccc(Cl)c4F)[C@H](C)C3)cc(C)c2F)[nH]n1	KM 12L4	cell growth or viability	ATP luminescence	–	5 days	0.0636 µM
CCOc1ccccc1-n1c(CN2CCNCC2)nc2ccccc2c1=O	Hs766T	cell growth or viability	–	–	72 h	0.103 µM
Cc1sc2c(c1C)C(c1ccc(NC(=O)c3cc([N+](=O)[O-])ccc3F)cc1)=N[C@@H](CC(=O)OC(C)(C)C)c1nnc(C)n1-2	Ramos	cell growth or viability	ATP luminescence	–	72 h	4e-06 µM
CC(=O)N[C@H](C(=O)N[C@@H](CCCNC(=N)N)C(=O)N[C@@H](CCCCN)C(=O)N[C@@H](CCCNC(=N)N)C(=O)N[C@]1(C)CCCC=CCCC[C@@](C)(C(=O)N[C@@H](CC(C)C)C(=O)N[C@@H](CC(C)C)C(=O)N[C@@H](CCC(N)=O)C(=O)N[C@@H](CCC(=O)O)C(=O)N[C@@H](CCCNC(=N)N)C(=O)N[C@@H](CCC(=O)O)C(=O)N[C@@H](CC(C)C)C(=O)N[C@H](C(=O)N[C@@H](CCC(=O)O)C(N)=O)C(C)C)NC(=O)[C@H](CCCNC(=N)N)NC(=O)[C@H](CC(C)C)NC1=O)C(C)C	H1975 (EGFR L858R/T790M)	cell viability	ATP luminescence	–	18 h	68.1 ± 6.03 µM
CC(=O)N[C@H](C(=O)N[C@@H](CCCNC(=N)N)C(=O)N[C@@H](CCCCN)C(=O)N[C@@H](CCCNC(=N)N)C(=O)N[C@H](C(=O)N[C@@]1(C)CCCC=CCCC[C@@](C)(C(=O)N[C@@H](CCC(N)=O)C(=O)N[C@@H](CCC(=O)O)C(=O)N[C@@H](CCCNC(=N)N)C(=O)N[C@@H](CCC(=O)O)C(=O)N[C@@H](CC(C)C)C(=O)N[C@H](C(=O)N[C@@H](CCC(=O)O)C(N)=O)C(C)C)NC(=O)[C@H](CC(C)C)NC(=O)[C@H](CCCNC(=N)N)NC(=O)[C@H](CCCNC(=N)N)NC1=O)[C@@H](C)O)C(C)C	H2030, wild-type EGFR	–	–	–	–	> 50 µM and > 100 µM
CC(=O)N[C@H](C(=O)N[C@@H](CCCNC(=N)N)C(=O)N[C@@H](CCCCN)C(=O)N[C@@H](CCCNC(=N)N)C(=O)N[C@H](C(=O)N[C@@H](CC(C)C)C(=O)N[C@@H](CCCNC(=N)N)C(=O)N[C@]1(C)CCCCCCC=CCCC[C@@](C)(C(=O)N[C@H](C(=O)N[C@@H](CCC(=O)O)C(N)=O)C(C)C)NC(=O)[C@H](CCC(=O)O)NC(=O)[C@H](CCCNC(=N)N)NC(=O)[C@H](CCC(=O)O)NC(=O)[C@H](CCC(N)=O)NC(=O)[C@H](CC(C)C)NC(=O)[C@H](CC(C)C)NC1=O)[C@@H](C)O)C(C)C	H1975 (EGFR L858R/T790M)	cell viability	ATP luminescence	–	18 h	> 100 µM
CCC1=C(C)C2=C(c3ccc(C(=O)NCCNC(=O)c4ccc(P(=NC5=[O+][Ru-]([Cl])[n+]6ccccc65)(c5ccccc5)c5ccccc5)cc4)cc3)c3c(C)c(CC)c(C)n3[B-](F)(F)[N+]2=C1C.Cc1ccc(C(C)C)cc1.Cl	MCF-10A	cell growth or viability	MTT	–	–	73 µM
CC(=O)N[C@H](C(=O)N[C@@H](CCCNC(=N)N)C(=O)N[C@@H](CCCCN)C(=O)N[C@@H](CCCNC(=N)N)C(=O)N[C@@]1(C)CCCC=CCCC[C@@](C)(C(=O)N[C@@H](CC(C)C)C(=O)N[C@@H](CCC(N)=O)C(=O)N[C@@H](CCC(=O)O)C(=O)N[C@@H](CCCNC(=N)N)C(=O)N[C@@H](CCC(=O)O)C(=O)N[C@@H](CC(C)C)C(=O)N[C@H](C(=O)N[C@@H](CCC(=O)O)C(N)=O)C(C)C)NC(=O)[C@H](CCCNC(=N)N)NC(=O)[C@H](CCCNC(=N)N)NC(=O)[C@H](CC(C)C)NC1=O)C(C)C	H2030 (wild-type EGFR)	cell viability	ATP luminescence	–	18 h	11.3 ± 3.18 µM
C#Cc1ccc(N2CCOCC2)c(/C=N/NC(=O)CCl)c1	AMO1	cell growth or viability	–	–	–	0.343 µM
